Results pooled from the literature.
Every numbered part comes from another study and shows a few of its results, in no order. Substitutions count along the parent as printed.

Set 1 — technique: protein-binding microarray; form: double-stranded DNA, one strand shown; matrix: in vitro; tested at: 250 nM; setting: 60-bp whole probe; together with: salmon DNA 0.4 mg/ml; relative to: random background probes; direction: higher = stronger binding; all sequences stand within: GCCTAGCAC … GTCTTGATTCGCTTGACGCTGCTG
Target: Interferon regulatory factor 5, full length, phosphomimetic (IRF5, Homo sapiens, UniProt Q13568-2, residues 1-514, K96S/S451D/S453D/S456D/S462D)
| Strand | log fluorescence [z-score] |
| --- | --- |
| TCTCTGCTCCTTCTGACATCGTGCTAG | 0.395 |
| GACGGTATCGGGACGGGGGACGTGCTA | 2.98 |
| TTAGATCTCAGTCTCCATTAGTGCTAG | 0.345 |
| TCATTATTAGTGACTCAGACTGTGCTA | 0.369 |
| TTAGATATCAGTCTCGCTTAGTGCTAG | 1.37 |
| ATATATATCATTTAATTATAGTGCTAG | 1.71 |
| TTAGATATCAGTCTGGATTAGTGCTAG | 1.2 |
| GACGGACTGCTTCTCCGGACGTGCTAG | -0.372 |

Set 2 — technique: RNA Bind-n-Seq; form: RNA; matrix: in vitro; tested at: 90 pmol; setting: 4-mer, random 30-nt RNA, single round; together with: 3 µM DMDA-PatA, 2 mM ADP, 2 mM phosphate; relative to: input library; direction: higher = stronger binding
Target: ATP-dependent RNA helicase DDX3X, helicase core (DDX3X, Homo sapiens, UniProt O00571, residues 132-607)
Chain of UniProt O00571 (132-607, looked up): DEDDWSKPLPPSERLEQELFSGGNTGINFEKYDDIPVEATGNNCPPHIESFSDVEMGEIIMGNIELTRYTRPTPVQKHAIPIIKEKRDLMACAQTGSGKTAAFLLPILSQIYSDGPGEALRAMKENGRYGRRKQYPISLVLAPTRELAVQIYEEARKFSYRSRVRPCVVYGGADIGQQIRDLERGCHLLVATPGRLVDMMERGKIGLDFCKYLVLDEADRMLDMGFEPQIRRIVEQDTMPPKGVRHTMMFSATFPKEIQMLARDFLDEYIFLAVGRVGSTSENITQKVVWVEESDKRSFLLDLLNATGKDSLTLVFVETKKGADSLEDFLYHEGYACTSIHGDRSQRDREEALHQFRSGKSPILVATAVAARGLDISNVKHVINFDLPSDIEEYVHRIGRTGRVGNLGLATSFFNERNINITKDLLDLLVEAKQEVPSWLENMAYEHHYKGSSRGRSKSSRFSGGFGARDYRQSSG
| Strand | 4-mer enrichment [fold] |
| --- | --- |
| UAUG | 1 |
| UCCG | 0.909 |
| GCAG | 0.969 |
| ACUA | 0.847 |
| CGCA | 1.02 |
| UCGU | 0.915 |
| GAAU | 1.13 |
| GCGC | 1.1 |

Set 3 — technique: universal PBM; form: double-stranded DNA, one strand shown; matrix: in vitro; tested at: not given; direction: higher = stronger binding
Target: Sal-like protein 4, full length isoform B (SALL4, Homo sapiens, UniProt Q9UJQ4-2, residues 1-616)
Setting: 8-mer, flanks averaged, mean of replicates
| Strand | E-score |
| --- | --- |
| CGGGAGAC | -0.205 |
| ATTAGGCC | 0.00079 |
| GAAACAGC | -0.0701 |
| CTGCGGAC | -0.287 |
| CGACCACC | -0.29 |
| ATAGGCAT | 0.126 |
| ATGCGCGG | -0.263 |
| GGTGTAAC | -0.0207 |

Further values, each from its own experiment
Parent: viral docking peptide; YKVKRRLVFGADD; partner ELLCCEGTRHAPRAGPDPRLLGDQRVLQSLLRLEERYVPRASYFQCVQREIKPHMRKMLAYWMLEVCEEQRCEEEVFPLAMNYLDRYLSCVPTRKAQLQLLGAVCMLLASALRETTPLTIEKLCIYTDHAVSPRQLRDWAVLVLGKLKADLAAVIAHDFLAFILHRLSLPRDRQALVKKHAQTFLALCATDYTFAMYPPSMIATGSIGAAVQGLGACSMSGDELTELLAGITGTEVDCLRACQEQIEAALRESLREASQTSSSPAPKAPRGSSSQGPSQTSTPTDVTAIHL
| Variant | target | assay | test system | conditions | scale | endpoint | result |
| --- | --- | --- | --- | --- | --- | --- | --- |
| A11V | CCND3, cyclin fold, Cln2 fusion (human) | yeast growth competition, sequencing | yeast | weak parent motif | relative to: not given, higher = stronger binding | normalised enrichment score | 0.165 |

A few entries again (set 3):
| Strand | E-score |
| --- | --- |
| GAAACAGC | -0.0701 |
| CGGGAGAC | -0.205 |
